Measured values gathered from unrelated publications.
Each numbered part is a random draw from the data of one study; scales do not carry over between parts. Substitutions count along the parent as printed.

Sample 1
Target: CCNA2, cyclin fold, Cln2 fusion (human)
Method: yeast growth competition, sequencing
Medium: yeast
Setting: strong parent motif
Reference: not given
Reading: higher = stronger binding
Starting sequence: RBL1 docking peptide (human); GSAKRRLFGEDPP; partner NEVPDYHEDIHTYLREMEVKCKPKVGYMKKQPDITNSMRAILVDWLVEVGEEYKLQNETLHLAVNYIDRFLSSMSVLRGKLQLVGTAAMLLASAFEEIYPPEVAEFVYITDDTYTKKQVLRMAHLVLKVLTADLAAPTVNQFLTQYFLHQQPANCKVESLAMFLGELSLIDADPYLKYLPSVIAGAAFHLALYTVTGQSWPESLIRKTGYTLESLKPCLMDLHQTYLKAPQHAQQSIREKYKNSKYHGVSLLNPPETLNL
Variant	normalised enrichment score
GSAKRRLVGEDPP [F8V]	0.843
HSAKRRLFGEDPP [G1H]	6.13
PSAKRRLFGEDPP [G1P]	6.45
GSAFRRLFGEDPP [K4F]	3.5
GSAKIRLFGEDPP [R5I]	0.883
GSAKRRLFFEDPP [G9F]	6.59
GSAKRRLFGEDCP [P12C]	5.48
GYAKRRLFGEDPP [S2Y]	4.58
GSAARRLFGEDPP [K4A]	5.11
GSAKRRLGGEDPP [F8G]	0.227
ASAKRRLFGEDPP [G1A]	5.61
GSAKRILFGEDPP [R6I]	2.83
GSAKRRLFGEDDP [P12D]	5.38
GVAKRRLFGEDPP [S2V]	5.19
GSAKRRLLGEDPP [F8L]	1.37
GSAKRSLFGEDPP [R6S]	3.86

Sample 2
Target: RNA binding protein fox-1 homolog 2, RRM domain, GST-SBP tag (RBFOX2, Homo sapiens, UniProt O43251-10, residues 100-194)
Method: RNA Bind-n-Seq
Molecule type: RNA
Medium: in vitro
Concentration: 365 nM
Setting: natural RNA segment, single round, ends assumed
Reference: no-protein control
Reading: higher = stronger binding
All sequences stand within: GGGAGUUCUACAGUCCGACGAUC … UGGAAUUCUCGGGUGCCAA
Construct (chain): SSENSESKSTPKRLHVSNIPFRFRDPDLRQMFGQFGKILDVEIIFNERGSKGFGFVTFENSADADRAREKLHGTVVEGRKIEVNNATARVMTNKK
Strand	RBNS enrichment (R)
UUUUUUUUAUAUAUAUAUAUAAAAAUAAACUUUACGUAGUGAAAUCUUCCAAGUCUUUUCUGGAAUUAUUAUAAAUACUUUAGUUUUAUUUUCUCAUCUUAAUCUCUCCA	1.74
CUUACUAGUCUGUUUUACUGGCUGAGACACCCUAUUUGGCAUUUUCACUGCUGGCUGGUGUGAUGGGUGUAGAGUGCCCACAGAUGAGUCUAUGGAUGUCUUGGCUCUGC	0.756
CCCUGCGAUUGUGCCACCCUGUGAUUGUAUAGCGUGUUGUUUGUUCCAGUAAGCAGGCAGGCCCAGAGACUGCUUUCUCAGCACCGCACAGAUCUCAGUGGGUCACAUAA	0.637
AUUGUAAAGACUGGGAUGGUUGUGUGGAAAACUUUUCUUGAGAGAACCUAUUGAAAGGAAUUUGUUGUCACCUUCUUAACUAGAAUAGUUGUUGAAGGUACCGCUUAAGC	0.505
CAAUUUAGUAUAAUAUGCAGUUCCUGUGCCUCCAGACUAUGCAGCUCAUCACCCUAGGUUCUACAGGAAAUACAGAGAUGAACAACUUUGCCUUCAAAAAUGUGCUGCCU	0.419
UCAGUAAUUUGUUGAAGAGUUAACAAGAAAAGGUCUUUCUAGAUUGUGUCUAAGAUGAAAUAAAAUGUAACUUUUGCUGCAGUGGUAUGUUUCUUUUGGAGUACAACAUG	0.417
AGGUUUUUACCAAUUUCUAGAGCAGUUCAAACCCUAAGUGCUCAAGCGCUUACACAUCCCCUCUGGUGCUUGGUUGAACAAGGGAAUCACGAGACAAUGAAAAUGCAGAG	0.292
GAUUAUAGAUUUAAAAGUAUAUGACAUGUAUUUUGUAUUUAAAACUAGAAUAGCCAGUAUUUAUGUUUUUUAUAAAACUGUGCAAUACAAAUUAUGCAAUCACCAUAACU	0.854
GAAUGGAACUAAUAUAUGUAACAGAGAAAAACAAUAAAUUUUAUGAACUUGUUUUAUAUUUGCAUAUCAAGAGUCAAGUAUGAUGUUUCUUUAAGUUGACUUUUUUUACU	0.717
CCGGGACUACCAUGGCCCCCAGGGCUGGCUUCCUCCUUCUGGGUUUCACAGGCUCCUCUGGCCCUGACCCCUCUUGCUCGUUCCCCUUCCUUCCGCAGCUCCUAGUCUCG	0.406
CCCCAACUUGGCUCGGCAUGUGAAUUCUUAGCUCUGCAAGGUGUUUAUGCCUUUGCGGGUUUCUUGAUGUGUUCGCAGUGUCACCCCAGAGUCAGAACUGUACACAUCCC	0.532
UUCCCUGCCACCCGGGGUAAGGAGGUGGCACUACCAGUCUGUCUAACCCACUCACUGGCUUUGACCUUCAACUGCCAGUCUGGGCAAAUACCAGUGAGCUCUGUUGUACC	0.331

Sample 3
Target: ABI1, truncated, D143A, DHFR fusion (Arabidopsis thaliana, UniProt P49597)
Method: DHFR PCA, dose-response
Medium: yeast
Setting: Hill fit, not affinity, not high confidence
With: (+)-ABA, dose series
Reading: lower = more sensitive
Starting sequence: PYL1, truncated, DHFR fusion (Arabidopsis thaliana, UniProt Q8VZS8); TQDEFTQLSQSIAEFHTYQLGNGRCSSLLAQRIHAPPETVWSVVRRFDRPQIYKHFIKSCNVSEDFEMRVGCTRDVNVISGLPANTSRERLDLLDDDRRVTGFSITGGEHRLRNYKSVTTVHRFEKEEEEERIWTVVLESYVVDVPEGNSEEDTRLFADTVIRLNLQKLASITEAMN
Variant	ABA EC50 [µM]
V161R	2.48
G108Y	1230
A84T	272
A158R	15
L112P	101
A84V	246
L91R	85.1
G102I	197
N177D	2.79
H16E	1050
L93P	2.15
H16V	708
L166Y	716
N177P	90.6
L112G	10

Sample 4
Target: Interferon regulatory factor 3, full length, phosphomimetic (IRF3, Homo sapiens, UniProt Q14653, residues 1-427, S386D/S396D/S398D/S402D/T404D/S405D)
Sequence of UniProt Q14653 (whole entry, unmodified, looked up): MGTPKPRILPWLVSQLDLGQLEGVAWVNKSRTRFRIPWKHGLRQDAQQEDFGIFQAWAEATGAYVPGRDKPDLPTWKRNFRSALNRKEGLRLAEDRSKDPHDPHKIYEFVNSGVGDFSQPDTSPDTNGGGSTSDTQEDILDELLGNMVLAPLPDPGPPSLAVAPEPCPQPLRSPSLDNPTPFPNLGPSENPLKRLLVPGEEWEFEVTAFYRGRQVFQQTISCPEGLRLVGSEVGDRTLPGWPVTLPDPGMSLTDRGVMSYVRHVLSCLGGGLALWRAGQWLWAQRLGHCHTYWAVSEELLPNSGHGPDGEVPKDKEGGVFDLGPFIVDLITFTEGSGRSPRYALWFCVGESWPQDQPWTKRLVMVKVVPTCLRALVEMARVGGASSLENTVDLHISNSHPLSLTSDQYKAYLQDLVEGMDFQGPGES
Method: protein-binding microarray
Molecule type: double-stranded DNA, one strand shown
Medium: in vitro
Concentration: 2540 nM top
Setting: 60-bp whole probe
With: salmon DNA 0.4 mg/ml
Reference: random background probes
Reading: higher = stronger binding
All sequences stand within: GCCTAGCAC … GTCTTGATTCGCTTGACGCTGCTG
Strand	fitted relative affinity [z-score]
GACGGTTTCCTTCTCATGACGTGCTAG	9.75
TTAGGTCTCTTTATCCTTTAGTGCTAG	1.29
AGTTCTCTAGAAATTCCCACGGTGCTA	0.511
GACGGTAGCGGGACTGGGGACGTGCTA	-0.722
TTAGGTATCCAACTGCTTTAGTGCTAG	1.47
TTGCATCGTAAGCAAAAATGGTGCTAG	-0.127
TCAGGCCTCTTGCTCAGACTGTGCTAG	-0.696
GACGGTTTCGACTTTCGGAACGTGCTA	4.61
TCATTTCTCCTATTTAAACTGTGCTAG	3.48
TTACGACTGGACTATCGGTTAGTGCTA	-0.209
TTAGATATCAGTATAGATTAGTGCTAG	0.665
GACGGTATCCTTACCCTGACGTGCTAG	3.74
CATTCTCTGCTTCTGTATGGGTGCTAG	4.66
CCACTCTTCCTTTACTTTCTGTGCTAG	2.28
TTAGGTTTCCTACTGCATTAGTGCTAG	5.18
TCAGAACTGGGGTATCGATTAGTGCTA	0.00936
TTAGATATCCTTATCCTTTAGTGCTAG	3.12
TTAGGTTTCGGGGTTCGGTTAGTGCTA	3.28
TCAGTTTCACTTTCCAAACTGTGCTAG	10.8
CCTCGTCTCTATCAAAAATAGTGCTAG	0.622
GACGGTATCGGGTATCGAGACGTGCTA	1.63
AAGCAAGGTGGAGAAGAGAAGTGCTAG	-1.09
TTAGAACTGGGGTTTCGTTTAGTGCTA	1.38

Sample 5
Target: Sal-like protein 4, full length isoform A (SALL4, Homo sapiens, UniProt Q9UJQ4, residues 1-1053)
Sequence of UniProt Q9UJQ4 (whole entry, looked up): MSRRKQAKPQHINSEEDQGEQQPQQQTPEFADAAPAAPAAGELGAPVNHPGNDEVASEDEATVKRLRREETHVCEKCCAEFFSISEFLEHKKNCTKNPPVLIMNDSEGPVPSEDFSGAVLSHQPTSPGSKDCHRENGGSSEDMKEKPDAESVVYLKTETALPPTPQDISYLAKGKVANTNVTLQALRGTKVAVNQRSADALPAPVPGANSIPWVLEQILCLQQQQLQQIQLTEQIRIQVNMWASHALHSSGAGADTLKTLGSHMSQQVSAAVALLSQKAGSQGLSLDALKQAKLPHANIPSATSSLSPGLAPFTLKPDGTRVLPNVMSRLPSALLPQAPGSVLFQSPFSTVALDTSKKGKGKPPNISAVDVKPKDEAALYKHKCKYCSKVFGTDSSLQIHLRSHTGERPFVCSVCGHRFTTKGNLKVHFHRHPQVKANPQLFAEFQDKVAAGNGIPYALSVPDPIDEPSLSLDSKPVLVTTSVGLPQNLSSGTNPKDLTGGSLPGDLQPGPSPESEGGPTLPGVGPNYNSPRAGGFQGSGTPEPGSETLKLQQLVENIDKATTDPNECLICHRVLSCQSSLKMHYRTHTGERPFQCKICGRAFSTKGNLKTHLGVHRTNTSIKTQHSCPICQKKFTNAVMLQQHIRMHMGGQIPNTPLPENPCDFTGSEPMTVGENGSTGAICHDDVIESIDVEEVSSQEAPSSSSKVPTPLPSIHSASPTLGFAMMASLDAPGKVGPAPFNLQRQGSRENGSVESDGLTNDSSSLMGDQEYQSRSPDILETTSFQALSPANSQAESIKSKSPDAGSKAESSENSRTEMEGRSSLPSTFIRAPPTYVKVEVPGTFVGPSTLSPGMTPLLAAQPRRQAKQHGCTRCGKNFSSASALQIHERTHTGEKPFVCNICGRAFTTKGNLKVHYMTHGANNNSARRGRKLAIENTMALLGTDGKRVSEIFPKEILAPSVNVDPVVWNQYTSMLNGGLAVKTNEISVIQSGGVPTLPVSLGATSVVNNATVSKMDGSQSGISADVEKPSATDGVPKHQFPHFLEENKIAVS
Method: universal PBM
Molecule type: double-stranded DNA, one strand shown
Medium: in vitro
Concentration: 600 nM
Setting: 8-mer, flanks averaged, mean of replicates
Reading: higher = stronger binding
Strand	E-score
AGTTAACT	-0.116
ATGGCTAA	0.147
CCCGGCCG	-0.361
CCTCTCAC	-0.0998
CGAACGTA	-0.0445
ACGTGCTG	-0.105
AACTATTA	0.348
CAACGTCG	-0.215
CAGGCAGG	-0.181
CGCTGATA	0.0603
AGGCGGTC	-0.189
ACCGTTAG	0.0147
CCATCTGA	0.00354
ACTCTCTG	-0.0191
ACGCAATC	-0.0238
GACCAAAC	-0.11
CCGCCCGC	-0.331
GCGGTTCA	-0.243
ACGGTCAC	-0.285
CAACTTGC	-0.0534

Sample 6
Target: RING finger protein unkempt homolog, zinc fingers 1-6, GST-SBP tag (UNK, Homo sapiens, UniProt Q9C0B0, residues 30-357)
Method: RNA Bind-n-Seq
Molecule type: RNA
Medium: in vitro
Concentration: not given
Setting: RNA with constant flanks, human and mouse sites, ends assumed
Reference: input RNA pool
Reading: higher = stronger binding
All sequences stand within: GGGAGUUCUACAGUCCGACGAUC … CAACAGAGGAUUGAGCAUCA
Construct (chain): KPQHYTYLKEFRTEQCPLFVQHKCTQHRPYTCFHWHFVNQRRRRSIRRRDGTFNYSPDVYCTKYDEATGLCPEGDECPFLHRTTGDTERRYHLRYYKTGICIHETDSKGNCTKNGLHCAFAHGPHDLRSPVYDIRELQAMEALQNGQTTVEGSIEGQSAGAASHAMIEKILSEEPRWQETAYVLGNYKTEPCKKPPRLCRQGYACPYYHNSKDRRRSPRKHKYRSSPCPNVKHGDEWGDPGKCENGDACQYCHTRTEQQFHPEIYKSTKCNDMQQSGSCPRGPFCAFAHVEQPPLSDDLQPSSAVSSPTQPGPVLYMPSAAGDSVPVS
Strand	bound/input enrichment
AUUCAUUUUUAAUUUUAAUUUUAUUUUAUACAACGUGUAGACGGUUCCCUGUUCUCUGCAUUUAGAAGUAUACACAGUACAACUGUUAAUUCUGUAAGUAAUUUUUAUAAUUAUGAUGUA	8.9 ratio
ACGGUUUGCUGAGCCCGUUAGUGCGCCCGGCCGAGACACGCCGCCGCCAUGUCCCGCUACCUGCGUCCCCCCAACACGUCUCUGUUCGUCAGGAACGUGGCCGACGACACCAGGUCUGAA	0.111 ratio
UAUUUGUGUUGGGAAGAAUGUUGUGGGGGUGGGGGGAAUUGAGUUGGGGGGUUAUUUUCUAAUUUUUUUUGUACAUUUGGAACAGUGACAAUAAAUGUGCCCCCUUUAUACUGUCGUUUU	3.32 ratio
CUGGGACCUGAAGGACUGGAUCUGAUUGAGAAGCUGCUCCAGAACAGAAUUACAAUUGUAGAUCGGUUCCUUAAUUCCUCGAGCGAUCAUAAGUUUCAAGUUCUCCAAGAUAGUUGUAAA	0.463 ratio
AUCAUGAGAAAUGAGGUGGCUCUAACUAACUACACCUUUGAAAAUGUGAGCUUUCAUGUUCUUCAUCAGCGUUUUCCCCUCUUUACCUUUCGAGUCUUGUCAGACUGGUUUGAUAACAAG	0.139 ratio
CAGUCCUCAAUGUCUAUUGAAUUUGGCCAAGAAUCUCCUGAGCAAUCCCUUGCUAUGGACUUCAGUCGACAGUCUCCAGAUCACCCUACAGUGGGUGCAGGCGUGCUUCACAUCACUGAA	0.0755 ratio

Sample 7
Target: Histone acetyltransferase KAT6A, winged helix 2, GST fusion (KAT6A, Homo sapiens, UniProt Q92794, residues 85-181)
Method: protein binding microarray
Molecule type: double-stranded DNA, one strand shown
Medium: in vitro
Concentration: not given
Setting: 8-mer, flanks averaged, mean of 2 arrays, mostly near background
Reference: not given
Reading: higher = stronger binding
Residues (chain): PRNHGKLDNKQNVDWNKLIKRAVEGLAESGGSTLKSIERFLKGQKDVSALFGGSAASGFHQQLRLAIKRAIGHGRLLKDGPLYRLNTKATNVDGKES
Strand	E-score
CTATACTC	-0.0163
CACAAGGG	-0.0269
ATTAAACG	-0.096
ATTGCCAC	0.112
CATCTGCA	-0.0276
AGGGCTGC	0.0214
AACCGGCC	0.236
CCGTGTGC	0.0431
AAAACGGA	0.0322
CTACTCCA	-0.0889
ACGACTCA	-0.148
GTATGGAC	0.0981
TATGTTGA	-0.14
ACTTTTAT	-0.0586
CGCGCGAC	0.13
GCCGCTAC	0.0951

For quick reference, copied from above (sample 4):
Strand	fitted relative affinity [z-score]
TTGCATCGTAAGCAAAAATGGTGCTAG	-0.127
TCAGGCCTCTTGCTCAGACTGTGCTAG	-0.696
GACGGTTTCGACTTTCGGAACGTGCTA	4.61
TCATTTCTCCTATTTAAACTGTGCTAG	3.48
TTACGACTGGACTATCGGTTAGTGCTA	-0.209
TTAGATATCAGTATAGATTAGTGCTAG	0.665
